# Published values pooled from the literature.
# A part holds a random share of what one study measured.

# Set 1
# Target: Ras GTPase-activating protein-binding protein 1, full length (G3BP1, Homo sapiens, UniProt Q13283)
# Sequence of UniProt Q13283 (whole entry, looked up): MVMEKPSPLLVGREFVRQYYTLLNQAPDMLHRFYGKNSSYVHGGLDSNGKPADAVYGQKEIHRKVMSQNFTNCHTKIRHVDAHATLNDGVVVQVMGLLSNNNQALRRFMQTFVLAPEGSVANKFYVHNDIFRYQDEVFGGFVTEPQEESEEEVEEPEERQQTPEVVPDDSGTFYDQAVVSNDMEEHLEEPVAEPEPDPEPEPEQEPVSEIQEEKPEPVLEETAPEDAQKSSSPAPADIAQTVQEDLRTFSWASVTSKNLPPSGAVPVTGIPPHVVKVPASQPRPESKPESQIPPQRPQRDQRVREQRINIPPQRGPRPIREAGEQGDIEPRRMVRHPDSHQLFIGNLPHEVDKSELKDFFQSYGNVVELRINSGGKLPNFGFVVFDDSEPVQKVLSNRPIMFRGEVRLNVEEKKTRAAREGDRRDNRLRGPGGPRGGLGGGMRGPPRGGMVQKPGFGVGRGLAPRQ
# Technique: RNA Bind-n-Seq
# Form: RNA
# Medium: in vitro
# Concentration: 200 nM
# Notes: whole 134-nt RNA, ends assumed
# Together with: 150 mM LiCl
# Reference: input library
# Reading: higher = stronger binding
# All molecules: 7-deaza-guanosine replaces G
Strand,log2 enrichment
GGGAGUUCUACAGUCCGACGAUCCCUGUGCUACACAUCGUAUGUACCGAAUCGGGGUUUUUUGGUUUUUUGGGGUUUUUUGGGGAAAGUAUUAUGUUACGCCGUUCGGAUCUGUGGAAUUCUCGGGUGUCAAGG,-0.0815
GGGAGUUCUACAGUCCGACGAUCCAAGUCCUGUGCUACACAUCGUAUGUACCGAAUCGGUUUUUUUGGAGGAAAAAGGAAAGUAUUAUGUUACGCCGUUCGGAUCUGCACUUCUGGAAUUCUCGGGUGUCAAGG,-0.671
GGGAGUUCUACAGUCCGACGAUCACCAUGCAGGUGGGCAUCUUUGGGAAGUGGGGCAAGGGGGGGAUAGGGAGGGGGGUAACACUUUGGGAACAGGUCGUCCCAGGUCGUUUCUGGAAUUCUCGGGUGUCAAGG,-0.147
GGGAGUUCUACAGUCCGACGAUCCUGUGCUACACAUCGUAUGUACCGAAUCGGUUUUUUUGGGGUUUUUUUGGGGUUUUUUUGGAAAGUAUUAUGUUACGCCGUUCGGAUCUGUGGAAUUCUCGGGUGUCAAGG,1.52
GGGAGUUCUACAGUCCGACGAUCCACAGACAACACGCACCCACACAGACACAGAGGGAAGGGGUUGGGAUGGGGACAGGGUGCACAGCAGGGCGUGGUAGGACCCCAGCCCCUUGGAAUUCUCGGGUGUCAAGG,0.336
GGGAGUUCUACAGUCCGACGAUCUCCUGUGCUACACAUCGUAUGUACCGAAUCGGAAAAAAAGGUUUUUUUGGUUUUUUUGGAAAGUAUUAUGUUACGCCGUUCGGAUCUGCAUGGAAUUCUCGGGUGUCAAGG,-2.16
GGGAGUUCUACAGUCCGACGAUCUCCUGUGCUACACAUCGUAUGUACCGAAUCAAAUUUUUUUAAAUUUUUUUAAACCCAAAAAAGUAUUAUGUUACGCCGUUCGGAUCUGCAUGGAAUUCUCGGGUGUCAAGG,-0.148
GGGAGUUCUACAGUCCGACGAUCUCAAGUCCUGUGCUACACAUCGUAUGUACCGAAUCGGGGCCGGGCCGGGCCGGGGAAAGUAUUAUGUUACGCCGUUCGGAUCUGCACUUCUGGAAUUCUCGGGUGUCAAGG,0.777

# Set 2
# Target: Interferon regulatory factor 7, full length, phosphomimetic (IRF7, Homo sapiens, UniProt Q92985, residues 1-503, S471D/S472D/S475D/S476D/S477D/S483D/S484D/S487D)
# Sequence of UniProt Q92985 (whole entry, unmodified, looked up): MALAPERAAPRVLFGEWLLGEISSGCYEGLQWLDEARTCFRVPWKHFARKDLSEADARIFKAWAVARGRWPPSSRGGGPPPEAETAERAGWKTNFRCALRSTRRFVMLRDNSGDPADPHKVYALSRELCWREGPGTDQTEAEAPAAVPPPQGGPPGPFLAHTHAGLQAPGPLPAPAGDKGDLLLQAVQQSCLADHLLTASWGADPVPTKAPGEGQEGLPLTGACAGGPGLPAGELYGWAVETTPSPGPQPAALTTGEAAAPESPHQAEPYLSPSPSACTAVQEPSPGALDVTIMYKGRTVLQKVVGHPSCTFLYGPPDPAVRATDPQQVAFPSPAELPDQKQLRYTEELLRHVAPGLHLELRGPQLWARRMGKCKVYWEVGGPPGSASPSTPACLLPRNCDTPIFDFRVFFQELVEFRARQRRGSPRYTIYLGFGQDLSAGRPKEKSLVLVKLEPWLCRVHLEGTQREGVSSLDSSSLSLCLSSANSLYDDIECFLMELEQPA
# Technique: protein-binding microarray
# Form: double-stranded DNA, one strand shown
# Medium: in vitro
# Concentration: 2200 nM top
# Notes: 60-bp whole probe
# Together with: salmon DNA 0.4 mg/ml
# Reference: random background probes
# Reading: higher = stronger binding
# Constant ends, left off below: GCCTAGCAC … GTCTTGATTCGCTTGACGCTGCTG
Strand,fitted relative affinity
GGGGAGCAGGGTGGCCCTGTGTGCTAG,-1.59 z-score
GACGGTTTCGGGATTGGGGACGTGCTA,5.35 z-score
CTAGAACTGGGGTTTCGATTAGTGCTA,2.03 z-score
GACGGTTTCAGTTCCGGGACGTGCTAG,4.15 z-score
GACGATATCGGGACTCGAGACGTGCTA,0.0656 z-score
TGGGAAATTCCTCTGAGGCAGTGCTAG,-0.735 z-score
CAGAAGCCAGAGAGGACAGGGTGCTAG,-0.899 z-score
TCAGCTCTGATGTTGGGACTGTGCTAG,-0.0699 z-score
TTACGTTCCGGTTTCGGTTAGTGCTAG,9.27 z-score
TTAGAACTGGACTATCGGTTAGTGCTA,-0.163 z-score
TTAGGTATCGTGTTTCGGTTAGTGCTA,3.88 z-score
CCAAACCTGTGCGCCGTGCCGTGCTAG,-0.0366 z-score
GACGTACTGGGTTTCGGGACGTGCTAG,1.76 z-score
TTAGAATCCAGTTTCGATTAGTGCTAG,5.94 z-score
TCACAACTCTGTTTTCGACTGTGCTAG,2.7 z-score
TTAGATATCAAACTGGATTAGTGCTAG,-0.44 z-score
TCAGGTGTTCTTTTCTGACTGTGCTAG,1.07 z-score
TTAGATCTCTGTCTCGATTAGTGCTAG,0.592 z-score
TTAGGTTTCTTTATCCTTTAGTGCTAG,1.67 z-score

# Set 3
# Target: RNA binding protein fox-1 homolog 2, RRM domain, GST-SBP tag (RBFOX2, Homo sapiens, UniProt O43251-10, residues 100-194)
# Technique: RNA Bind-n-Seq
# Form: RNA
# Medium: in vitro
# Concentration: 365 nM
# Notes: natural RNA segment, single round, ends assumed
# Reference: no-protein control
# Reading: higher = stronger binding
# Residues (chain): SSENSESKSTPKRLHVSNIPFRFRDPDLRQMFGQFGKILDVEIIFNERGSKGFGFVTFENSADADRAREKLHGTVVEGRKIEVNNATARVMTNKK
Strand,RBNS enrichment (R)
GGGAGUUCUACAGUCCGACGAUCACAGGUAAGGAUUACCUUCUCUAGUGGUUCUUGCGAUUUGUCUGCCUAGGUGUGCUCCAGGUUGCCUGUGGGUUUCCUUUCUGUGAUGGGAUUUAGUGUAGACAUUCUUGUGGAAUUCUCGGGUGCCAA,0.41
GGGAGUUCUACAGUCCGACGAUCUCAAGAAAUACUUUUCCAUGACCCAUGGAAGCUCCUCAUCGCGACUAUAUUUCUCAAUCGGACCUCAGGCAAGAUGGCCAUCCCUGUGCUGUGGGAGUUUCUAGAGAAGUUGGAAUUCUCGGGUGCCAA,0.319
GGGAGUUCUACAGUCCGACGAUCGUGAUUCCCAUUGGUGUAGGAAAUGAGACCCUCUCUGAAGCUGAGGAGAGCACGUUGAUCUGAACUUUAAAUCAAUCAGUGCUGCUGGCACAAUGAAAGGUGGAACUGCAUGGAAUUCUCGGGUGCCAA,5.25
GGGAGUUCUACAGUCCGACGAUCUGGUUGUGUUAACAGAGCACAUUUUGUUGGGUGAGUCCUAUGUGAUUUUUUUCAUGUUUGUUUUAUCUGGGGGUUGUUCAUGAAACUGACAGAUGUUUUUCUAAAAAGGAUGGAAUUCUCGGGUGCCAA,0.768
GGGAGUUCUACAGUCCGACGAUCGCCCGUGUGAGAAGUGAAUGCUGGGACUCAGCCUUCAGACAGAGAGGACUGUAGGGAGGGCGGCAGGGGCCUGGAGAUCCUCCUGCAGACCACGCCCGUCCUGCCUGUGGUGGAAUUCUCGGGUGCCAA,0.326
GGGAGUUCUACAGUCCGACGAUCCCUCCUUCCCCGUACUUUGUCCCGUGGCAUUUCAAUUCCUGGCCCUGUUCUCCUCCCCAAGUCGGCACCCUUUAACUCAUGAGGAGGGAAAAGAGUGCCUAAGCGGGGGUUGGAAUUCUCGGGUGCCAA,0.69
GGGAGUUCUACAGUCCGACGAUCUGCACUUGCACUAGAGCAGCCGGUGCCCAUGCAGAGUGAACGUGGCUGAAUUAACUUUUCCAACAACCAAGUGGGUCAGCAAUUUGAUGCCCUUGAUAAAUAUCAACUUUUGGAAUUCUCGGGUGCCAA,0.33
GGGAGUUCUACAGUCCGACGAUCAUGACUUCCUAGGGUUCUGAAAUUCAUAGACUAAGAGAAAACUGUGUAUAGCUUGCCCGAACAGGAGUCCUUACUGAUAUUUAUUGAACAGUCGAUUCCCCUACCCGCCCUGGAAUUCUCGGGUGCCAA,1.12

# Set 4
# Target: RING finger protein unkempt homolog, zinc fingers 1-6, GST-SBP tag (UNK, Homo sapiens, UniProt Q9C0B0, residues 30-357)
# Sequence of UniProt Q9C0B0 (30-357, looked up): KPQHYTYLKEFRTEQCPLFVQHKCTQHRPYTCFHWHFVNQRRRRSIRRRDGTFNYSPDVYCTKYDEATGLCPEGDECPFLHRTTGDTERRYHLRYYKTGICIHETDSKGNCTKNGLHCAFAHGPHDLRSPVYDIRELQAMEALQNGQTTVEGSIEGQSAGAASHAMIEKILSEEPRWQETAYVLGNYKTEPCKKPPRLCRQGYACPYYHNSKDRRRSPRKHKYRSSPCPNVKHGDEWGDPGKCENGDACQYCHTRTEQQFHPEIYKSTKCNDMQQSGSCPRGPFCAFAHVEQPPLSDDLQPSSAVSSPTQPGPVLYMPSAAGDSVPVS
# Technique: RNA Bind-n-Seq
# Form: RNA
# Medium: in vitro
# Concentration: not given
# Notes: RNA with constant flanks, ends assumed
# Reference: input RNA pool
# Reading: higher = stronger binding
Strand,bound/input enrichment [ratio]
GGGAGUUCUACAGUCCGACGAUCGCUCUAGUUCUUAACAACCGACACUCCUACAAGAUUUAGAAAAAAGUUUACAACAUAAUCCCGUUUACAGAAAAAUCUUGUGCUAGAAUACUUUUUAAAAGGUAUUUUGAAUACCAUUAACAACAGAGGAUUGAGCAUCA,8.57
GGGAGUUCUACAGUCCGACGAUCGCUUGCCAGAAGAUGAUCUUAGAGUUGUUUUCUAAGGUGCCAUCCUUGGUAGGAAGCUUUAUCCGAAGCCAAAAUAAAGAAGACUAUGCUGGCCUAAAAGAAGAAUUUCGUAAAGAAUUUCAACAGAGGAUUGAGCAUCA,0.188
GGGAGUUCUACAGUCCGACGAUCACUGUGGCAUAUACUGAAAAGAAAAUGACCAGUGGCAAGAUCAAGAAAUUUAUUCAGGACCGCAUUUUUGGUCUCUGUCCUCAUAUGACGGAAGAUAAUAAAGAUUUGAUACAAGGCAAGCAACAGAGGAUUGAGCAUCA,0.31
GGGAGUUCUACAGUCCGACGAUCAUUUUAUUGGUGCCUUCUUUCAUCAUGCCUUUUAAAUCAAAGGGAUAUUGGUACAUGCUUUCCGAAGAAUUGUGUCAGUAUUACCGAAUUUUUGUUCCUAUACCAGUUUGGUUUCGGUACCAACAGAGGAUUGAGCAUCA,0.307
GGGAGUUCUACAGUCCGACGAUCCUUGGGGACCUUCGAACUCUGGAGCUGCUGCUUAUCUGUGCAGGCCAUCCUCAAUAUGAGGCCGCCGAAAUUUCAUUUAACUUUUGGUACCGACUGGGGGAACAUUUGUACAAAACUAACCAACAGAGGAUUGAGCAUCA,0.187
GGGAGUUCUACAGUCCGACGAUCCUAUCACUAUGGCAAAAACAUAAAUAUUAUCUCAUUUCAGUGUGUGGAGUUGUGGUUGCCGUGUUUGCCUGGUACAUCACCCAUGAUGUCAAUUAAAAAAAGUUUUGAUCUUUUAAUGUACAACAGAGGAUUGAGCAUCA,0.277
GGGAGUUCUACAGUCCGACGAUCAACAACUUUCUUCAAACACUAAAUCAAGCUUGGAAUGAUCAUCAAACAGCCAUGGUGAUGAUCCGAGACAUAUUAAUGUAUAUGGACCGUGUAUAUGUACAACAGAAUAAUGUAGAAAAUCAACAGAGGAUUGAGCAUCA,0.258
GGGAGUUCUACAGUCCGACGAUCCCAACACUUUGCUCCCUGGCAACCCCUAAUAUUUGGGAUCUCUCAAUGCUAUUUGCCUUCAUCCGCUUGCUCGUUAUGCUUCCCACUUGGUGGAUUGUGUCUUCCUGGCUGGUAUGGGGACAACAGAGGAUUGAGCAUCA,0.149
